Measurements collected from several papers.
Compare with care: the assays were run in different laboratories. ± marks the error that the study gave.

CN1CCC[C@H](CN2c3ccccc3Sc3ccccc32)C1.Cl  Tmax (Wistar rat female, liver; oral, 16 mg/kg): 30 min
OCC1=C[C@@H](O)[C@@H]2C=CO[C@@H](O[C@@H]3O[C@H](CO)[C@@H](O)[C@H](O)[C@H]3O)[C@H]12  Tmax (Sprague-Dawley rat, internal jugular vein plasma; oral, 500 mg/kg Eu + 217 mg/kg Pc extract, dosed as combined Eu and Pc extracts): 60 ± 52.2 min
C=CC(=O)N1CCC[C@@H](n2nc(-c3ccc(Oc4ccccc4)cc3)c3c(N)ncnc32)C1  Tmax (male Wistar rat, stomach; oral, 50 mg/kg): 45 ± 34.2 min
COC(=O)C1=CO[C@@H](O[C@@H]2O[C@H](CO)[C@@H](O)[C@H](O)[C@H]2O)[C@@H]2C(CO)=CC[C@H]12  Tmax (Sprague-Dawley rat, internal jugular vein plasma; oral, 500 mg/kg Eu + 217 mg/kg Pc extract, dosed as combined Eu and Pc extracts): 30 min
CSc1ccccc1C(=O)NCCn1cc(C(=O)NCc2cccc(C)n2)c(=O)c2cc3c(cc21)OC(F)(F)O3  Tmax (Sprague-Dawley rat, male, whole blood; intramuscular, 30 mg/kg of parent drug): 70.2 ± 26.4 min
CCc1cc(C(=O)NC)c2nccc(N3CCc4c(cc(Cn5ccnc5)cc4-c4cn(C)nc4C(F)(F)F)C3=O)c2c1  Tmax (Sprague Dawley rat, male, plasma; oral, 100 mg/kg twice daily, day 1): 720 min
CNC(=O)c1cccc(-c2ccc([C@@H](O)[C@H]3O[C@H](CO)[C@@H](O)[C@H](O)[C@@H]3O)c(C)c2)c1  Tmax (Sprague-Dawley rat, male, plasma; intravenous, 3 mg/kg): 4.98 min
Cc1cccc(CNC(=O)c2cn(CCNC(=O)c3ccccc3S)c3cc4c(cc3c2=O)OC(F)(F)O4)n1  Tmax (Sprague-Dawley rat, male, plasma; intravenous, 5 mg/kg of parent compound): 4.98 min

Some of these lines once more:
CCc1cc(C(=O)NC)c2nccc(N3CCc4c(cc(Cn5ccnc5)cc4-c4cn(C)nc4C(F)(F)F)C3=O)c2c1  Tmax (Sprague Dawley rat, male, plasma; oral, 100 mg/kg twice daily, day 1): 720 min
